# Experimental data pooled from the literature.
# Lines come from different studies, so protocols differ. ± gives the spread as reported.
SMILES,host,matrix,route,dose,time,tissue uptake
CCCC[C@H](NC(=O)CNC(=O)CNC(=O)CN1CCN(CC(=O)O)CCN(CC(=O)O)CC1)C(=O)N[C@H]1CC(=O)NCCCC[C@@H](C(N)=O)NC(=O)[C@H](Cc2c[nH]c3ccccc23)NC(=O)[C@H](CCCNC(=N)N)NC(=O)[C@@H](Cc2ccccc2)NC(=O)[C@H](Cc2c[nH]cn2)NC1=O [copper-64 labelled],C57 mouse female B16/F1 melanoma,intestines,intravenous,0.037 MBq,24 h,0.5 ± 0.2 %ID
CN(C)c1ccc(-c2nc3ccc(OCCCCCN4CCN5CCN(CC4)CC(=O)[O][Al]([18F])[O]C(=O)C5)cc3s2)cc1,ICR mouse,blood,intravenous,,10 min,3.58 ± 1.31 %ID/g
CCCC[C@H](NC(=O)CNC(=O)CNC(=O)CN1CCN(CC(=O)O)CCN(CC(=O)O)CCN(CC(=O)O)CC1)C(=O)N[C@H]1CC(=O)NCCCC[C@@H](C(N)=O)NC(=O)[C@H](Cc2c[nH]c3ccccc23)NC(=O)[C@H](CCCNC(=N)N)NC(=O)[C@@H](Cc2ccccc2)NC(=O)[C@H](Cc2c[nH]cn2)NC1=O [copper-64 labelled],"female C57 mouse, B16/F1 melanoma",blood,intravenous,0.037 MBq,24 h,1.07 ± 0.17 %ID/g
O=C([O-])c1cccc(CN(CCN(Cc2cn(Cc3ccccc3)nn2)Cc2cccc(C(=O)[O-])n2)Cc2cn(Cc3ccccc3)nn2)n1.[64Cu+2],healthy athymic nude mice,small intestine,intravenous,,24 h,3.05 %ID/g
O=C(O)C1CN(Cc2ccc(-c3noc(-c4ccc(OCC[18F])c(C(F)(F)F)c4)n3)cc2)C1,male Sprague-Dawley rat,muscle,intravenous,,60 min,0.156 ± 0.01 %ID/g
CC(C)[C@H](NC(=O)[C@@H]1CCCN1C(=O)[C@H](CCCNC(=N)N)NC(=O)[C@H](CS)NC(=O)[C@H](Cc1c[nH]c2ccccc12)NC(=O)[C@H](CCCNC(=N)N)NC(=O)[C@@H](Cc1ccccc1)NC(=O)[C@H](Cc1c[nH]cn1)NC(=O)[C@H](CCC(=O)O)NC(=O)[C@H](CS)NC(=O)[C@H](CS)NC(=O)CNC(=O)[C@@H]1CC(=O)N[C@@H](CCCNC(=N)N)C(=O)NCC(=O)N[C@@H](CC(=O)O)C(=O)N[C@H](Cc2ccc(O)cc2)C(=O)N1)C(N)=O [technetium-99m labelled],"C57 mouse, female, B16/F1 melanoma",blood,intravenous,0.037 MBq,4 h,0.71 ± 0.72 %ID/g
O=C([O-])CN1CCN(CC(=O)[O-])CCN(CC(=O)NCCc2ccc3c(c2)C2C=CCC2C(c2cc4c(cc2Br)OCO4)N3)CCN(CC(=O)[O-])CC1.[111In+3] (stereo not drawn),"mouse, Hec50 endometrial tumour",spleen,,,4 h post injection,0.36 ± 0.1 %ID/g
CC(C)[C@H](NC(=O)[C@@H]1CCCN1C(=O)[C@H](CCCNC(=N)N)NC(=O)[C@H](CS)NC(=O)[C@H](Cc1c[nH]c2ccccc12)NC(=O)[C@H](CCCNC(=N)N)NC(=O)[C@@H](Cc1ccccc1)NC(=O)[C@H](Cc1c[nH]cn1)NC(=O)[C@H](CCC(=O)O)NC(=O)[C@H](CS)NC(=O)[C@H](CS)NC(=O)[C@@H]1CC(=O)N[C@@H](CCCNC(=N)N)C(=O)NCC(=O)N[C@@H](CC(=O)O)C(=O)N[C@H](Cc2ccc(O)cc2)C(=O)N1)C(N)=O [technetium-99m labelled],"C57 mouse, female, B16/F1 melanoma",brain,intravenous,0.037 MBq,2 h,0.05 ± 0.01 %ID/g
OCc1cn(Cc2ccc(-c3noc(-c4ccc(OCC[18F])c(C(F)(F)F)c4)n3)cc2)nn1,"Lewis rat, female",pancreas,intravenous,,1 h,1.52 ± 0.25 %ID/g

# Some of these lines once more:
SMILES,host,matrix,route,dose,time,tissue uptake
O=C(O)C1CN(Cc2ccc(-c3noc(-c4ccc(OCC[18F])c(C(F)(F)F)c4)n3)cc2)C1,male Sprague-Dawley rat,muscle,intravenous,,60 min,0.156 ± 0.01 %ID/g
